Published values from different studies.
Numbers after ± are the reported error. Values after ≈ are worked out from the molar mass of the structure shown.

Under CaMKII autophosphorylation, CCOc1c(C(C)(C)O)sc2cnc(Nc3ccc(N4CCC(N5CC6(COC6)C5)CC4)cc3OC)nc12 is recorded as “decreased” (CaMKII, mouse; Western blot, measured: phospho-Thr287 CaMKII over total; C57BL/6J mouse, TAC heart failure, heart; oral, 30 mg/kg once daily, 7 days; baseline: vehicle).
Under “GI50 of mitoxantrone”, COc1ccc(OC)c(/C=C/C(=O)c2ccc3c(c2)OCO3)c1 is recorded as 26.7 ± 11.4 nM (ABCG2; cell growth, chemosensitizer, MTT; HEK293 transfected with ABCG2; 1 µM, 72 h).
For C[C@H](N)C(=O)N[C@@H](C)C(=O)O, the affinity ratio was roughly 10 fold (PepTSt Streptococcus thermophilus; competition uptake in proteoliposomes; baseline: compound over tri-alanine).
O=C(O)c1ccccc1-c1c2ccc(=O)cc-2oc2cc(O)ccc12: PCNA ubiquitination “inactive” (PCNA ubiquitination cascade (human); Alpha; concentration not given).
The enrichment factor of CS(=O)(=O)CCC1NC(=O)C(Cc2ccco2)NC(=O)C(CC2CC2)NC(=O)C=CC(=O)NC(C(N)=O)CCNC1=O (stereo not shown) is reported as 1 (AMPK; binding, DNA-templated library selection; one selection round).
Under “time to near-complete dephosphorylation”, O=C(Cc1ccc2ccccc2c1)N[C@H](Cc1ccccc1)C(=O)N[C@H](Cc1ccccc1)C(=O)N[C@H](Cc1ccc(O)cc1)C(=O)N[C@H](Cc1ccc(OP(=O)(O)O)cc1)C(=O)O is recorded as no more than 24 h (alkaline phosphatase; substrate; 0.5 wt %, together with: ALP 0.02 U/mL).
Under inhibition, Cn1cnnc1Sc1c2c(c(C#N)c3nc4ccccc4n13)CCCC2 is recorded as “no inhibition” (hydrogen peroxide; Amplex Red; 100 µM).
CCCCC(=O)N(C)c1ccc(O)cc1 — result for “average chemical shift perturbation”: less than 0.029 ppm (HBV core protein Cp149 dimer; solution NMR; 4 molar equivalents, pH 7.5, 295 K, average over eight residues; baseline: apo Cp149 dimer).
For CN1CCCNC(=O)CCC(=O)NCCCN(C)CCCNc2cccc3c2C(=O)c2cccc(c2C3=O)NCCC1, “melting temperature increase” read 2.8 °C (telomeric G-quadruplex DNA; circular dichroism; 4.5 µM, 100 mM K+).
[Cl][Pd-2]1([Cl])[N+](=P(c2ccccc2)(c2ccccc2)[c-]2cccc2)Cc2cccc[n+]21.[Cl][Pd-2]1([Cl])[N+](=P(c2ccccc2)(c2ccccc2)[c-]2cccc2)Cc2cccc[n+]21.[Fe+2] — result for “metal/DNA ratio at coalescence”: 0.25 (plasmid DNA pBR322; electrophoretic mobility shift; 20 h, 37 °C).
CC(C)(C)OCc1ccc(CO)cc1 — result for “average chemical shift perturbation”: 0.048 ppm (HBV core protein Cp149 dimer; solution NMR; 4 molar equivalents, pH 7.5, 295 K, average over eight residues; baseline: apo Cp149 dimer).
OB1c2sccc2C=NN1Cc1ccccc1: inhibition “inactive” (human pancreatic trypsin; enzyme activity, inhibitor; 100 µM).
CCCCC/C=C/C(=O)CCc1ccc(O)c(OC)c1 has an IC50 of 0.311 µg/mL (≈ 1.12 µM) (mAb 5-D8; antibody binding, indirect competitive ELISA; together with: coating antigen hapten 5-OVA).
O=C(Nc1ccc(S(=O)(=O)Nc2nccs2)cc1)c1cc(-c2ccco2)nc2ccccc12 has an inhibition of roughly 30% (ChREBP human; reporter gene, inhibitor, LPK promoter luciferase; HepG2; 3 µM, together with: high glucose).
Under “uptake increase by blocking”, [64Cu+2].c1cnc(CNCc2ccc(CN3CCCN4CCNCCCN(CC4)CC3)cc2)nc1 is recorded as 42% (CXCR4; NOD/SCID mice, U87 xenograft, kidney; dose not given, 90 min post-injection, together with: AMD3465 25 mg/kg; baseline: unblocked).
Cc1cc(/C=C/c2ccc(O)c(O)c2)[nH]n1 has an increase of 52% (glutathione reductase; enzyme activity; MCF7; 25 µM, 48 h).
CCCCCCCCCCCCCCCC(=O)N[C@@H](CCC(=O)NCCCC[C@H](NC(=O)[C@H](CC(=O)O)NC(=O)[C@H](CO)NC(=O)[C@@H](NC(=O)[C@H](Cc1ccccc1)NC(=O)[C@@H](NC(=O)CNC(=O)[C@H](CCC(N)=O)NC(=O)[C@H](CO)NC(=O)[C@@H](N)Cc1c[nH]cn1)[C@@H](C)O)[C@@H](C)O)C(=O)N[C@@H](CO)C(=O)N[C@@H](CCC(=O)O)C(=O)N[C@@H](Cc1ccc(O)cc1)C(=O)N[C@@H](CC(C)C)C(=O)N[C@@H](CC(=O)O)C(=O)N[C@@H](CO)C(=O)N[C@@H](CCC(=O)O)C(=O)N[C@@H](CCCNC(=N)N)C(=O)N[C@@H](C)C(=O)N[C@@H](CCCNC(=N)N)C(=O)N[C@@H](CC(=O)O)C(=O)N[C@@H](Cc1ccccc1)C(=O)N[C@H](C(=O)N[C@@H](C)C(=O)N[C@@H](Cc1c[nH]c2ccccc12)C(=O)N[C@@H](CC(C)C)C(=O)N[C@@H](CCC(=O)O)C(=O)N[C@@H](C)C(=O)NCC(=O)NCC(=O)O)C(C)C)C(=O)O gave an EC50 of 0.0052 ± 0.00078 nM (cynomolgus monkey GLP-1 receptor; cAMP accumulation, agonist; CHO cells; together with: 4.2% monkey albumin).
The binding of CC(=O)c1cnc(N)nc1N1CC[C@H]1c1nn2ccc(Cl)c2c(=O)n1-c1ccccc1 is reported as 70% (PI3K beta; KiNativ; monkey white blood cell lysate; 1 µM).
Under translocation, C=C1CN(S(=O)(=O)c2ccc(C)cc2)CCCN(Cc2ccccc2)CCCN(S(=O)(=O)c2ccc(C)cc2)C1 is recorded as “inhibited” (huCD4-PL chimera; cell-free translation; reticulocyte lysate, microsomes; 15 µM and higher).
Under “unitary current amplitude 3”, Cc1sc2ncn(CC(=O)N3CCCC3)c(=O)c2c1-c1cccc(Br)c1 is recorded as -2.16 ± 0.57 pA (NMDA receptor, mouse; single-channel current, outside-out patch; cortical neurons; concentration not given, holding -80 mV, together with: Ca2+ 1.25 mM).
COc1cc(/C=C/C(=O)c2ccc3ccccc3c2)ccc1OCc1ccccc1 — result for “GI50 of mitoxantrone”: 16.4 ± 3.1 nM (ABCG2; cell growth, chemosensitizer, MTT; HEK293 transfected with ABCG2; 1 µM, 72 h).
With NC(=O)C1CCCCNC(=O)C(CCCNC(=O)c2cnccn2)NC(=O)C(Cc2ccco2)NC(=O)C(CC2CC2)NC(=O)C=CC(=O)N1 (stereo not shown) the enrichment factor was 1.1 (AMPK; binding, DNA-templated library selection; one selection round).
The IC50 of COc1cc(CCC(C)=O)ccc1O is reported as greater than 4 µg/mL (mAb 3-LD3; antibody binding, indirect competitive ELISA; together with: coating antigen hapten 2-OVA).
Nc1ccc(C2CC2)cc1 — result for “average chemical shift perturbation”: less than 0.029 ppm (HBV core protein Cp149 dimer; solution NMR; 4 molar equivalents, pH 7.5, 295 K, average over eight residues; baseline: apo Cp149 dimer).
Cc1ccc(O)c2c3c(nn12)CCC(C)(NC(=O)c1ccc(-n2cnc4cc(C(=O)O)ccc42)cc1Cl)C3 (stereo not shown) gave an enzyme occupancy of greater than 65% (factor IXa rat; arteriovenous shunt; rat; for clot weight below 50 mg).

Some of these lines once more:
CCCCC/C=C/C(=O)CCc1ccc(O)c(OC)c1 has an IC50 of 0.311 µg/mL (≈ 1.12 µM) (mAb 5-D8; antibody binding, indirect competitive ELISA; together with: coating antigen hapten 5-OVA).
COc1cc(/C=C/C(=O)c2ccc3ccccc3c2)ccc1OCc1ccccc1 — result for “GI50 of mitoxantrone”: 16.4 ± 3.1 nM (ABCG2; cell growth, chemosensitizer, MTT; HEK293 transfected with ABCG2; 1 µM, 72 h).
